Results of several laboratories.
“And” joins repeats or separate records; there may be more than shown. ± gives the spread as reported.
UniProt P05177, sequence (whole entry, looked up): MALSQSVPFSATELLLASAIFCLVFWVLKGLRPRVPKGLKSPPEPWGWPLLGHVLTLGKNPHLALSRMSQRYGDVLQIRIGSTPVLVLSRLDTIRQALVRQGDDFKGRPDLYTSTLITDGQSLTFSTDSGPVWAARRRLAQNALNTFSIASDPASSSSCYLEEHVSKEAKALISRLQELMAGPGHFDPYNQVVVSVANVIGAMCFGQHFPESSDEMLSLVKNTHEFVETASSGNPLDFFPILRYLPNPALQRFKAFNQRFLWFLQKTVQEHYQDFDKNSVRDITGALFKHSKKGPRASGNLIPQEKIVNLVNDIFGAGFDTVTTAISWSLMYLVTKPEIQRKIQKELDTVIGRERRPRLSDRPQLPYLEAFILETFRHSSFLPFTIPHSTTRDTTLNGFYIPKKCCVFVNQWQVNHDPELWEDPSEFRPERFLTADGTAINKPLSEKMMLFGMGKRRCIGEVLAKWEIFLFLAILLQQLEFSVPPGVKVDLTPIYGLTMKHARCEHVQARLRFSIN
UniProt P08684, sequence (whole entry, looked up): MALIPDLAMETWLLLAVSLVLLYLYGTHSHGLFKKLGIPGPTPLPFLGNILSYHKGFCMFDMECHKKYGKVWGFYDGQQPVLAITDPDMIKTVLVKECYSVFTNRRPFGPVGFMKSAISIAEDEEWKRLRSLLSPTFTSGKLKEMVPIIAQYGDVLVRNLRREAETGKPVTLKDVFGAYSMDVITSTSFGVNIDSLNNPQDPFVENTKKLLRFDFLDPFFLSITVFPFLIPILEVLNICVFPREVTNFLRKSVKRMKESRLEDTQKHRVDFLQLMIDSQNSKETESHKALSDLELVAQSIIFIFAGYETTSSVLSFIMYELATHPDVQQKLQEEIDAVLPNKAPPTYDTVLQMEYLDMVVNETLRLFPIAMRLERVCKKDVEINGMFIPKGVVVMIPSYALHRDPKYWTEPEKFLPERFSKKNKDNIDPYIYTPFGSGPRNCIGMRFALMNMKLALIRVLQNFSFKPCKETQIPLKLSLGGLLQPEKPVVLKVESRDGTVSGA

SMILES = COc1cccc(OC)c1-c1cc(C(=O)NC2(C(=O)O)C3CC4CC(C3)CC2C4)nn1-c1ccc(C(=O)N(C)CCOCCN(C)C(=O)[C@H](CCCCNC(=O)[C@H](CC(C)C)NC(=O)C2OC2C(=O)O)NC(=O)CN2CCN(CC(=O)[O-])CCN(CC(=O)[O-])CCN(CC(=O)[O-])CC2)cc1C(C)C.[177Lu+3] (mixture of isomers); target or system = HT-29 tumour model; system = host not given, bone; setting = 7 days, tumour-bearing; measurement = tracer uptake; value = 0.4 %ID/g
SMILES = O=C(Nc1cnccc1-c1ccc([18F])nc1)c1ccnc(NC(=O)C2CC2)c1; system = mice, transgenic, GSK-3β, early-stage, bladder; setting = intravenous, dose not given, 120 min; measurement = SUV; value = 0.317
SMILES = COc1cccc(OC)c1-c1cc(C(=O)NC2(C(=O)O)C3CC4CC(C3)CC2C4)nn1-c1ccc(C(=O)N(C)CCOCCOCCN(C)C(=O)[C@H](CCCCNC(=O)[C@H](CC(C)C)NC(=O)C2OC2C(=O)O)NC(=O)CN2CCN(CC(=O)[O-])CCN(CC(=O)[O-])CCN(CC(=O)[O-])CC2)cc1C(C)C.[177Lu+3] (mixture of isomers); target or system = HT-29 tumour model; system = host not given, stomach; setting = 24 h, tumour-bearing; measurement = tracer uptake; value = 0.11 %ID/g
SMILES = CN1CCCNC(=O)c2cccc(c2)C(=O)NCCCN(C)CCCNc2cccc3c2C(=O)c2cccc(c2C3=O)NCCC1; target or system = HSC-2; assay = cell growth or viability, CCK-8; setting = 0.5 µM, 48 h; measurement = viability; value = 72.5%
SMILES = CCN(CC)CC#CCNc1ccnc2cc(Cl)ccc12; target or system = Salmonella typhimurium; assay = mini-Ames test; system = TA102; setting = 500.0 µg/well, without S9; measurement = revertants per well; value = 71
SMILES = CCOc1cc(-c2cc(CN3c4ccccc4C=Cc4ccccc43)on2)ccc1Cl; target or system = BJ; assay = cytotoxicity; measurement = IC50; value = > 30 µM
SMILES = Cc1nc2cccc(OCC(C)(C)C(=O)NC(C)C)c2c(N)c1C(=O)[O-].[Na+]; target or system = human peripheral blood lymphocytes; setting = 500 g/mL, 20 h, without S9; measurement = relative mitotic index; value = 108%
SMILES = COc1cccc(OC)c1-c1cc(C(=O)NC2(C(=O)O)C3CC4CC(C3)CC2C4)nn1-c1ccc(C(=O)N(C)CCCN(C)CCCN(C)C(=O)[C@H](CCCCNC(=O)[C@H](CC(C)C)NC(=O)C2OC2C(=O)O)NC(=O)CN2CCN(CC(=O)[O-])CCN(CC(=O)[O-])CCN(CC(=O)[O-])CC2)cc1C(C)C.[177Lu+3] (mixture of isomers); target or system = HT-29 tumour model; system = host not given, blood; setting = 72 h, tumour-bearing; measurement = tracer uptake; value = 0.3 %ID/g
SMILES = CC(C)OCCOCc1ccc(OCC(O)CN(N=O)C(C)C)cc1 (stereo not shown); target or system = Salmonella typhimurium; assay = Ames test; system = TA1537; setting = 5000 µg/plate, 30 % hamster S9; scale = relative to: solvent control; measurement = revertant fold increase; value = 0.6 fold
SMILES = CC(C)(C)NCC(SS(=O)(=O)O)c1ccccc1 (stereo not shown); target or system = Schistosoma mansoni; assay = perfusion day 44; system = infected Swiss Webster mice; setting = 600 mg/kg single dose, dosed day 7 post-infection; scale = relative to: vehicle control; measurement = body weight decrease; value = 15%
SMILES = N#C[C@@H]1CCCN1C(=O)CNC(=O)c1ccnc2ccc(OCCCN3CCN(C(=O)CCc4ccc(O)c(CN5CCN6CC(=O)[O][Al-]([18F])([O]C(=O)C5)[O]c5ccc(CCC(=O)N7CCN(CCCOc8ccc9nccc(C(=O)NCC(=O)N%10CCC[C@H]%10C#N)c9c8)CC7)cc5C6)c4)CC3)cc12 (stereo partly shown); target or system = U-87 MG tumour model; system = host not given, pancreas; setting = 1 h, tumour-bearing; measurement = tracer uptake; value = 2.75 %ID/g
SMILES = O=C1C2CC3CC1CC(C(=O)N1CCN(c4ccc([N+](=O)[O-])c5ncccc45)CC1)(C3)C2; target or system = Salmonella typhimurium; assay = Ames test; system = TA1535; setting = 0.31 µg/well, without S9; scale = relative to: vehicle; measurement = revertant fold increase; value = 1
SMILES = C=CC(=O)Nc1cc(Nc2nccc(-c3cn(C)c4ccccc34)n2)c(OCC(F)(F)F)nc1N(C)CCN(C)C; target or system = human hepatocytes lot LTG; assay = CYP1A2 enzyme activity, inducer; setting = 1 µM; scale = relative to: omeprazole 100 µM; measurement = induction; value = 5.98%
SMILES = N#C[C@@H]1CC(F)(F)CN1C(=O)CNC(=O)c1ccnc2c(NC(=O)CCOCCOCCOCCOCCOCCOCCNC(=O)[C@H](CCCCNC(=O)CN3CCN(CC(=O)[O-])CCN(CC(=O)[O-])CCN(CC(=O)[O-])CC3)NC(=O)CCCc3ccc(I)cc3)cccc12.[177Lu+3]; target or system = U-87 MG tumour model; system = host not given, muscle; setting = 48 h, tumour-bearing; measurement = tracer uptake; value = 0.13 %ID/g
SMILES = N#C[C@@H]1CCCN1C(=O)CNC(=O)c1ccnc2ccc(OCCCN3CCN(C(=O)CCc4ccc5c(c4)CN4CCN6CC(=O)[O][68Ga-]([O]C(=O)C4)([O]5)[O]c4ccc(CCC(=O)N5CCN(CCCOc7ccc8nccc(C(=O)NCC(=O)N9CCC[C@H]9C#N)c8c7)CC5)cc4C6)CC3)cc12; target or system = U-87 MG tumour model; system = host not given, pancreas; setting = 1 h, tumour-bearing; measurement = tracer uptake; value = 2.48 %ID/g
SMILES = Brc1cccc(-c2cc(CN3c4ccccc4C=Cc4ccccc43)on2)c1; target or system = BJ; assay = cytotoxicity; measurement = IC50; value = > 30 µM
SMILES = O=C1NC2(CC2)COc2ncc(F)cc2[C@H]2COCCN2c2ccn3ncc1c3n2; target or system = Salmonella typhimurium; assay = Ames test; system = TA98; setting = 1500 µg/plate, 48 h, together with: without S9; measurement = revertant colonies; value = 13 ± 6 revertants/plate
SMILES = O=C(CN1CN(c2ccc(Cl)c(Cl)c2)C2(CCN(C(=O)c3ccc4[nH]ncc4c3)CC2)C1=O)NCC(F)(F)F; target or system = Cytochrome P450 3A4 (CYP3A4, Homo sapiens, UniProt P08684); assay = enzyme activity, inhibitor; measurement = IC50; value = 22 µM
SMILES = N#C[C@@H]1CC(F)(F)CN1C(=O)CNC(=O)c1ccnc2c(NC(=O)[C@H](CCCCNC(=O)CCOCCOCCOCCOCCOCCOCCNC(=O)CN3CCN(CC(=O)[O-])CCN(CC(=O)[O-])CCN(CC(=O)[O-])CC3)NC(=O)CCCc3ccc(I)cc3)cccc12.[177Lu+3]; target or system = U-87 MG tumour model; system = host not given, bone; setting = 96 h, tumour-bearing; measurement = tracer uptake; value = 0.4 %ID/g
SMILES = Nc1nc2cc(C(=O)c3ccc(F)cc3)ccc2[nH]1; target or system = Salmonella typhimurium; assay = Ames preincubation test; system = TA1535; setting = 19.5 µg per plate, 3 days, without S9; measurement = revertants; value = 20.3 revertants per plate
SMILES = C=C(NC(=O)c1csc(-c2nc3c(cc2O)-c2nc(cs2)C(=O)NC(C(C)O)C(=O)NC(=C(C)OC)c2nc(cs2)C(=O)NC2c4nc(cs4)C(=O)NC(COC(=O)c4c5c6c(cccc6n4O)COC(=O)C(OC4CC(C)(O)C(N(C)C)C(C)O4)C2OC5)c2nc-3cs2)n1)C(N)=O (stereo not shown); system = ICR mice, Streptococcus pneumoniae ATCC 49169 infected, immunocompromised, blood; setting = intravenous, 2 mg/kg twice daily; measurement = AUC(0-t); value = 0.11 µM·h
SMILES = CNC(=O)C1CCCN(C(=O)C2CC3CCC2N3C(=O)[C@@H]2C[C@@H](O)CN2C(=O)NCc2cccc(Cl)c2F)C1 (mixture of isomers); target or system = Cytochrome P450 1A2 (CYP1A2, Homo sapiens, UniProt P05177); assay = preincubation without NADPH; system = human; setting = 0.0686 µM; scale = relative to: negative control; measurement = remaining activity; value = 89.5% and 94.3% and 96.6%

A few entries again:
SMILES = Brc1cccc(-c2cc(CN3c4ccccc4C=Cc4ccccc43)on2)c1; target or system = BJ; assay = cytotoxicity; measurement = IC50; value = > 30 µM
SMILES = O=C1NC2(CC2)COc2ncc(F)cc2[C@H]2COCCN2c2ccn3ncc1c3n2; target or system = Salmonella typhimurium; assay = Ames test; system = TA98; setting = 1500 µg/plate, 48 h, together with: without S9; measurement = revertant colonies; value = 13 ± 6 revertants/plate
SMILES = O=C(CN1CN(c2ccc(Cl)c(Cl)c2)C2(CCN(C(=O)c3ccc4[nH]ncc4c3)CC2)C1=O)NCC(F)(F)F; target or system = Cytochrome P450 3A4 (CYP3A4, Homo sapiens, UniProt P08684); assay = enzyme activity, inhibitor; measurement = IC50; value = 22 µM
